Measurements collected from several papers.
Compare with care: the assays were run in different laboratories. ± gives the spread as reported.
KDM5A: KDM5A 287-347 (Homo sapiens, UniProt P29375)
ACKR4: ACKR4 (Homo sapiens, UniProt Q9NPB9)
B1: ramucirumab; V domains shown; VH EVQLVQSGGGLVKPGGSLRLSCAASGFTFSSYSMNWVRQAPGKGLEWVSSISSSSSYIYYADSVKGRFTISRDNAKNSLYLQMNSLRAEDTAVYYCARVTDAFDIWGQGTMVTVSS; VL DIQMTQSPSSVSASIGDRVTITCRASQGIDNWLGWYQQKPGKAPKLLIYDASNLDTGVPSRFSGSGSGTYFTLTISSLQAEDFAVYFCQQAKAFPPTFGGGTKVDIK
B2: UGT1A9 (Homo sapiens, UniProt O60656); chain GKLLVVPMDGSHWFTMRSVVEKLILRGHEVVVVMPEVSWQLGRSLNCTVKTYSTSYTLEDLDREFKAFAHAQWKAQVRSIYSLLMGSYNDIFDLFFSNCRSLFKDKKLVEYLKESSFDAVFLDPFDNCGLIVAKYFSLPSVVFARGILCHYLEEGAQCPAPLSYVPRILLGFSDAMTFKERVRNHIMHLEEHLLCHRFFKNALEIASEILQTPVTEYDLYSHTSIWLLRTDFVLDYPKPVMPNMIFIGGINCHQGKPLPMEFEAYINASGEHGIVVFSLGSMVSEIPEKKAMAIADALGKIPQTVLWRYTGTRPSNLANNTILVKWLPQNDLLGHPMTRAFITHAGSHGVYESICNGVPMVMMPLFGDQMDNAKRMETKGAGVTLNVLEMTSEDLENALKAVINDKSYKENIMRLSSLHKDRPVEPLDLAVFWVEFVMRHKGAPHLRPAAHDLTWYQYHSLDVIGFLLAVVLTVAFITFKCCAYGYRKCLGKKGRVKKAHKSKTH
B3: XCL1 mature protein V21C/V59C/S6A (UniProt P47992); chain VGSEVADKRTCVSLTTQRLPCSRIKTYTITEGSLRAVIFITKRGLKVCADPQATWVRDCVRSMDRKSNTRNNMIQTKPTGTQQSTNTAVTLTG
B4: mutL R531E (Escherichia coli, UniProt P23367); chain MPIQVLPPQLANQIAAGEVVERPASVVKELVENSLDAGATRIDIDIERGGAKLIRIRDNGCGIKKDELALALARHATSKIASLDDLEAIISLGFRGEALASISSVSRLTLTSRTAEQQEAWQAYAEGRDMNVTVKPAAHPVGTTLEVLDLFYNTPARRKFLRTEKTEFNHIDEIIRRIALARFDVTINLSHNGKIVRQYRAVPEGGQKERRLGAICGTAFLEQALAIEWQHGDLTLRGWVADPNHTTPALAEIQYCYVNGRMMRDRLINHAIRQACEDKLGADQQPAFVLYLEIDPHQVDVNVHPAKHEVRFHQSRLVHDFIYQGVLSVLQQQLETPLPLDDEPQPAPRSIPENRVAAGRNHFAEPAAREPVAPRYTPAPASGSRPAAPWPNAQPGYQKQQGEVYRQLLQTPAPMQKLKAPEPQEPALAANSQSFGRVLTIVHSDCALLERDGNISLLSLPVAERWLRQAQLTPGEAPVCAQPLLIPLRLKVSAEEKSALEKAQSALAELGIDFQSDAQHVTIRAVPLPLEQQNLQILIPELIGYLAKQSVFEPGNIAQWIARNLMSEHAQWSMAQAITLLADVERLCPQLVKTPPGGLLQSVDLHPAIKALKDE
B5: Cdh1 157-884 (Mus musculus, UniProt P09803); sequence looked up; chain DWVIPPISCPENEKGEFPKNLVQIKSNRDKETKVFYSITGQGADKPPVGVFIIERETGWLKVTQPLDREAIAKYILYSHAVSSNGEAVEDPMEIVITVTDQNDNRPEFTQEVFEGSVAEGAVPGTSVMKVSATDADDDVNTYNAAIAYTIVSQDPELPHKNMFTVNRDTGVISVLTSGLDRESYPTYTLVVQAADLQGEGLSTTAKAVITVKDINDNAPVFNPSTYQGQVPENEVNARIATLKVTDDDAPNTPAWKAVYTVVNDPDQQFVVVTDPTTNDGILKTAKGLDFEAKQQYILHVRVENEEPFEGSLVPSTATVTVDVVDVNEAPIFMPAERRVEVPEDFGVGQEITSYTAREPDTFMDQKITYRIWRDTANWLEINPETGAIFTRAEMDREDAEHVKNSTYVALIIATDDGSPIATGTGTLLLVLLDVNDNAPIPEPRNMQFCQRNPQPHIITILDPDLPPNTSPFTAELTHGASVNWTIEYNDAAQESLILQPRKDLEIGEYKIHLKLADNQNKDQVTTLDVHVCDCEGTVNNCMKAGIVAAGLQVPAILGILGGILALLILILLLLLFLRRRTVVKEPLLPPDDDTRDNVYYYDEEGGGEEDQDFDLSQLHRGLDARPEVTRNDVAPTLMSVPQYRPRPANPDEIGNFIDENLKAADSDPTAPPYDSLLVFDYEGSGSEAASLSSLNSSESDQDQDYDYLNEWGNRFKKLADMYGGGEDD
B6: CCL21 mature, 1-111 (Homo sapiens, UniProt O00585); sequence looked up; chain SDGGAQDCCLKYSQRKIPAKVVRSYRKQEPSLGCSIPAILFLPRKRSQAELCADPKELWVQQLMQHLDKTPSPQKPAQGCRKDRGASKTGKKGKGSKGCKRTERSQTPKGP
B7: EnvC 278-419 Y350A (Escherichia coli, UniProt P37690); chain STESEKSLMSRTGGLGAPRGQAFWPVRGPTLHRYGEQLQGELRWKGMVIGASEGTEVKAIADGRVILADWLQGAGLVVVVEHGKGDMSLYGYNQSALVSVGSQVRAGQPIALVGSSGGQGRPSLYFEIRRQGQAVNPQPWLGR

Molecule = B1 (ramucirumab); tested on = KDR (Homo sapiens, UniProt P35968); assay = HUVEC proliferation, neutraliser; test system = antibody, HUVEC; setting = added: VEGF-A+VEGF-C+VEGF-D; quantity = neutralisation EC50; value = 1.99 µg/mL
Molecule = PEAK1 (Homo sapiens, UniProt Q9H792); tested on = TNS3 1172-1282 Y1173F/Y1206F/Y1256F (Homo sapiens, UniProt Q68CZ2); assay = pull-down; test system = COS-7, lysate; how to read = baseline: SH2-WT, higher = less binding; quantity = relative binding reduction; value = > 50%
Molecule = cyp102A1 flavin reductase domain (Bacillus megaterium); tested on = CYP3A4 del3-12 (Homo sapiens, UniProt P08684); assay = BMR-dependent reduction; test system = proteoliposomes; setting = no substrate; quantity = slow phase rate constant; value = 0.0024 s⁻¹
Molecule = FGF2 (Homo sapiens, UniProt P09038); tested on = FGFR3 isoform IIIc (unknown, UniProt Q61851); assay = cell proliferation, MTT; test system = BaF3-FGFR3c; setting = 20 nM, 48 h, added: chondroitin sulfate B 4.9 µg/mL; how to read = baseline: FGF 1 with heparin, higher = more proliferation; quantity = cell proliferation; value = 74%
Molecule = ARVKQTARKS (Histone H3.1 2-11 T3V (Homo sapiens, UniProt P68431); sequence looked up); tested on = KDM5A; assay = competition with labeled peptide, fluorescence polarisation; test system = peptide; setting = added: H3 peptide; quantity = Ki; value = 7170 nM
Molecule = liraglutide; tested on = GCGR (Homo sapiens, UniProt P47871); assay = reporter gene, agonist, CRE luciferase reporter; test system = HEK293; quantity = EC50; value = > 1000 nM
Molecule = Lmod2 (Mus musculus, UniProt Q3UHZ5); tested on = ACTA1 G-actin, pyrene label (UniProt P68135); assay = pyrene-actin polymerization nucleation, activator; setting = 5 nM, added: G-actin 3.0 µM, pCa; how to read = higher = shorter lag; quantity = lag time reduction; value = 2.5 fold
Molecule = GSN (Homo sapiens, UniProt P06396); tested on = actin, pyrene label (Oryctolagus cuniculus, UniProt P68135); assay = F-actin severing, fluorimetric pyrene-actin assay; setting = 20 °C, without Ca2+, added: GSN 0.25 µM; quantity = depolymerization rate; value = 0.62 h⁻¹
Molecule = Ser-Glu dipeptide, nanoparticle-coupled; tested on = SLC15A1 (Homo sapiens, UniProt P46059); assay = flow cytometry; test system = AsPC-1; setting = 6 µg/mL, 12 hours h; how to read = baseline: unconjugated NPs, higher = more uptake; quantity = relative cell fluorescence; value = 11.3 fold
Molecule = EPB41 fragment (Homo sapiens); tested on = SLC9A1 residues 506-575 (Rattus norvegicus); assay = resonant mirror detection; setting = pH 5.5; quantity = fold increase of Kd; value = > 20 times
Molecule = Itgam/Itgb2 Mac-1 (Mus musculus); tested on = LL-37 (Homo sapiens); assay = phagocytosis of latex beads; test system = mouse peritoneal macrophages; how to read = baseline: untreated beads, higher = more phagocytosis; quantity = phagocytosis; value = 4.5 fold
Molecule = B2 (UGT1A9); tested on = O=c1ccoc2cc(O)ccc12; assay = steady-state kinetics; setting = pH 7.4, 37 °C; quantity = Vmax; value = 0.000668 µmol/min/mg
Molecule = FKBP1A (Homo sapiens, UniProt P62942); tested on = RYR1 (Oryctolagus cuniculus, UniProt P11716); assay = planar lipid bilayer recording; test system = planar lipid bilayers; setting = single channel, nonphosphorylated; quantity = open time; value = 22.1 ms
Molecule = GOLGA2 GST fusion; tested on = KPNA2 ΔIBB, NLS-binding domain del IBB; assay = ITC; how to read = baseline: TPX2 NLS, higher = tighter binding; quantity = relative affinity; value = 9 fold
Molecule = PRDX1 (Homo sapiens, UniProt Q06830); tested on = FOXO3 (Homo sapiens, UniProt O43524); assay = FOXO dual-luciferase reporter; test system = Prdx1-/- MEFs; how to read = higher = greater repression; quantity = reporter signal decrease; value = 50%
Molecule = cytochrome c5 (Shewanella oneidensis); tested on = CcP, two covalent hemes (Shewanella oneidensis); assay = steady-state kinetics; setting = oxidized, tag-free, added: electron donor 4 µM; quantity = peroxide turnover rate k1; value = 7 s⁻¹
Molecule = B3; tested on = XCR1 (Homo sapiens, UniProt P46094); assay = calcium flux; test system = HEK293; how to read = baseline: XCL1 CC3, higher = less potent; quantity = potency decrease; value = 2.1 fold
Molecule = B4 (mutL R531E); tested on = mutH 1-229 (Escherichia coli, UniProt P06722); assay = MutH cleavage of heteroduplex DNA; how to read = baseline: MutL wild type, higher = more activity; quantity = MutL activity; value = 115%
Molecule = C3a (Homo sapiens, UniProt P01024); tested on = C3AR1 (Homo sapiens, UniProt Q16581); assay = PWV shift, agonist, label-free photonic crystal biosensor; test system = RBL-2H3, DMEM + 10% FBS; quantity = EC50; value = 1.8 nM
Molecule = CCL19 (UniProt Q99731); tested on = ACKR4; assay = β-arrestin2 recruitment, agonist, EFC; test system = CHO-CCX-CKR; setting = added: CXCL13 100 nM; quantity = pEC50; value = 9.1
Molecule = B5 (Cdh1 157-884); tested on = Vangl2 (Mus musculus, UniProt Q91ZD4); assay = co-IP; test system = HEK293T; setting = β-catenin shRNA; how to read = baseline: control, higher = more association; quantity = E-cadherin association; value = 2.17 ± 0.22 a.u.
Molecule = DGWSHW (THBS1 residues 436-441 G436D (Homo sapiens)); tested on = FN1 intact plasma (Homo sapiens); assay = competition with coated peptide, radioligand binding; test system = peptide; quantity = IC50; value = > 300000 nM
Molecule = B6 (CCL21 mature, 1-111); tested on = ACKR4; assay = β-arrestin recruitment, agonist, NanoLuc complementation; quantity = EC50; value = 22 nM
Molecule = RNF2 (Homo sapiens, UniProt Q99496); tested on = CBX2 (UniProt Q14781); assay = FRET; test system = Cbx2−/− ES cells; setting = in cells, mitotic chromosomes; how to read = baseline: before photobleaching, higher = more FRET; quantity = donor fluorescence increase; value = 1.5 ± 0.1 fold
Molecule = ADAR (Homo sapiens, UniProt P55265-5); tested on = DICER1 (Homo sapiens, UniProt Q9UPY3); assay = pre-siRNA cleavage; setting = single turnover; how to read = baseline: Dicer alone, higher = more cleavage; quantity = cleavage; value = 4 fold
Molecule = ARTKETARKS (Histone H3.1 2-11 Q5E (Homo sapiens, UniProt P68431); sequence looked up); tested on = KDM5A; assay = competition with labeled peptide, fluorescence polarisation; test system = peptide; setting = added: H3 peptide; quantity = Ki; value = 2530 nM
Molecule = B7 (EnvC 278-419 Y350A); tested on = AmiB (Escherichia coli); assay = dye release from labelled sacculi, activator; setting = 1 µM; how to read = baseline: wild-type, higher = more activation; quantity = AmiB activation; value = 22.3%
Molecule = ferredoxin 2 (Magnetococcus marinus); tested on = 2-oxoglutarate:ferredoxin oxidoreductase αβ heterodimer (Magnetococcus marinus); assay = 2-oxoglutarate formation; setting = electron donor, added: ferredoxin; quantity = CO2 reduction activity; value = 6.3 min⁻¹
Molecule = Sptb (Chinese hamster, UniProt A0A9J7GYU9); tested on = Ncam1 (Rattus norvegicus, UniProt P13596); assay = co-IP; test system = CHO; setting = added: methyl-β-cyclodextrin; how to read = baseline: untreated control, higher = more spectrin bound; quantity = relative coprecipitation; value = 74 ± 7.32%
Molecule = YARRRKRRSLAINLTN (TTLL13P D-site peptide (Homo sapiens)); tested on = MAPK8, pT183, pY185 (Homo sapiens, UniProt P45983); assay = kinase activity, inhibitor, competitive kinase inhibition assay; test system = peptide; setting = added: ATP 1 mM; quantity = IC50; value = 1800 nM
Molecule = CAND1 (Homo sapiens, UniProt Q86VP6); tested on = CUL2 (Homo sapiens, UniProt Q13617); assay = co-IP; test system = lysate; setting = unneddylated, chase; quantity = dissociation half-life; value = 13 min

For quick reference, copied from above:
Molecule = B7 (EnvC 278-419 Y350A); tested on = AmiB (Escherichia coli); assay = dye release from labelled sacculi, activator; setting = 1 µM; how to read = baseline: wild-type, higher = more activation; quantity = AmiB activation; value = 22.3%
Molecule = ferredoxin 2 (Magnetococcus marinus); tested on = 2-oxoglutarate:ferredoxin oxidoreductase αβ heterodimer (Magnetococcus marinus); assay = 2-oxoglutarate formation; setting = electron donor, added: ferredoxin; quantity = CO2 reduction activity; value = 6.3 min⁻¹
Molecule = Sptb (Chinese hamster, UniProt A0A9J7GYU9); tested on = Ncam1 (Rattus norvegicus, UniProt P13596); assay = co-IP; test system = CHO; setting = added: methyl-β-cyclodextrin; how to read = baseline: untreated control, higher = more spectrin bound; quantity = relative coprecipitation; value = 74 ± 7.32%
Molecule = YARRRKRRSLAINLTN (TTLL13P D-site peptide (Homo sapiens)); tested on = MAPK8, pT183, pY185 (Homo sapiens, UniProt P45983); assay = kinase activity, inhibitor, competitive kinase inhibition assay; test system = peptide; setting = added: ATP 1 mM; quantity = IC50; value = 1800 nM
